Measurements of several laboratories.
Target: Serine/threonine-protein kinase 38 (STK38, Homo sapiens, UniProt Q15208)

Compound | assay | system | conditions | scale | quantity | value
Cc1cnc2nc1Nc1cccc(c1)COC/C=C/COCc1cc(ccc1OCCN1CCOCC1)N2 | binding, competition with immobilised ligand | – | 0.1 µM | – | remaining binding | 98%
CNC1C[S+]2CC[S+]3CC[S+](C1)[Ru-4]321([N]=C=S)[n]2c3ccc(OC)cc3c3c4c(c5cc(F)c[n+]1c5c32)C(=O)NC4=O (centres unmarked) | KinomeScan | – | 0.1 µM | reference: untreated | remaining binding | 100%
NC(=O)C[C@H]1CCc2sc3ncnc(O[C@H]4CC[C@H](N5CCOCC5)CC4)c3c21 | enzyme activity, inhibitor | – | 10 µM | – | inhibition | -3%
C=CC(=O)N1CCCC(n2c(=O)c3ncccc3n(Cc3ccc(Oc4ccccc4)cc3)c2=O)C1 (centres unmarked) | cell-free assay, competition with immobilised ligand | – | 1 µM | – | remaining binding | 84%
O=C(Cc1ccc(OCc2ccccc2)cc1)NC1(C(=O)O)CCN(C(=O)c2ccc(-c3cccc(Cl)c3)cc2)CC1 | enzyme activity, inhibitor | – | 10 µM | – | activity vs control | 107%
Cc1ccc(-c2c(/C=C(\C#N)C(=O)NC(C)C)n(CCCO)c3ncnc(N)c23)cc1 | cell-free assay, competition with immobilised ligand | – | 1 µM | – | remaining binding | 100%
COc1c(Cl)cccc1Nc1c(-c2ccncc2C#C[C@@]2(C)CCCN2C(=O)/C=C/CN(C)C)[nH]c2c1C(=O)NCC2 | binding, competition with immobilised ligand | – | 3 µM | – | remaining binding | 61%
COc1cc(Nc2nccc(-c3cnn4nc(OC)ccc34)n2)cc(C(F)(F)F)c1 | binding, competition with immobilised ligand | – | 1 µM | – | remaining binding | 82%
Cc1ccc(C(=O)Nc2ccc(CN3CCN(C)CC3)c(C(F)(F)F)c2)cc1C#Cc1cnc2cccnn12 | target engagement, NanoBRET | human cells | – | – | upper asymptote | 11000
CCn1cc(C(=O)O)c(=O)c2c(N)c(F)c(NC3CCCCC3)cc21 | kinase activity | – | 0.1 µM, added: ATP at Km | – | inhibition | 3.6%
COc1cc(Nc2nc(C)cc(-c3cnn4nc(OC)ccc34)n2)cc(C(F)(F)F)c1 | inhibitor | – | 1 µM, NDR1 | reference: control | remaining activity | 90%
CC(C)=CC1OC(C)(C)C2C=C3C(=O)C(Cl)=CC(O)C3C3C(O)C4OC4C(=O)C132 (centres unmarked) | cell-free assay, competition with immobilised ligand | – | 10 µM | – | remaining binding | 67%
CNC(=O)C1CCN(c2cc(C)c(F)cc2NC(=O)c2ccc(-c3cc(O)ccc3C)c(C)c2)CC1 | binding, competition with immobilised ligand | – | 1 µM | – | remaining binding | 100%
Nc1ncc(-c2cc(-c3cnn(CC(F)(F)F)c3)ncc2F)nc1C(=O)NC1CNCC(F)C1 (centres unmarked) | enzyme activity | – | 1 µM | reference: DMSO control | remaining activity | 90.7%
Nc1ncc2c(n1)-c1c([nH]c3ccc(C4=CCOCC4)cc13)CCC2 | binding, competition with immobilised ligand | – | 1 µM | – | remaining binding | 100%
C=CC(=O)N1Cc2nc(-c3cc(-c4cc(Cl)cnc4Cl)c(F)cc3F)n(-c3ccncn3)c2C1 | cell-free assay, inhibitor | – | 1 µM | – | inhibition | 0%
CN1CCN(Cc2ccc(-c3ccc(CO[C@H]4CCC[C@@H]4NC(=O)c4cc(-c5cnn(C)c5)cnc4N)cc3)cc2)CC1 | enzyme activity, inhibitor | – | 0.1 µM | – | inhibition | 12%
NC(=O)[C@@H](O)C[C@H]1CCc2sc3ncnc(O[C@H]4CC[C@H](N5CCOCC5)CC4)c3c21 | enzyme activity, inhibitor | – | 10 µM | – | inhibition | 9%
C=CC(=O)N1CCc2ccc(-n3c(=O)ccc4cnc5ccc(-c6cnn(C)c6)cc5c43)cc21 | KINOMEscan | – | 1 µM | reference: DMSO control | remaining binding | 67%
CCN1CCN(Cc2ccc(C(=O)Nc3ccc(C)c(NCc4cnc5[nH]ccc5c4OC)c3)cc2C(F)(F)F)CC1 | binding, competition with immobilised ligand | – | 1 µM | – | remaining binding | 48%

A few entries again:
Compound | assay | system | conditions | scale | quantity | value
COc1c(Cl)cccc1Nc1c(-c2ccncc2C#C[C@@]2(C)CCCN2C(=O)/C=C/CN(C)C)[nH]c2c1C(=O)NCC2 | binding, competition with immobilised ligand | – | 3 µM | – | remaining binding | 61%
COc1cc(Nc2nccc(-c3cnn4nc(OC)ccc34)n2)cc(C(F)(F)F)c1 | binding, competition with immobilised ligand | – | 1 µM | – | remaining binding | 82%
